{"data": "Measured values from different studies", "note": "Each numbered part is a random draw from the data of one study; scales do not carry over between parts. Substitutions count along the parent as printed."}
{"data": "Study 1", "target": "Histone acetyltransferase KAT6A, both winged helices, GST fusion (KAT6A, Homo sapiens, UniProt Q92794, residues 1-181)", "method": "protein binding microarray", "form": "double-stranded DNA, one strand shown", "matrix": "in vitro", "tested at": "not given", "setting": "8-mer, flanks averaged, mean of 2 arrays, mostly near background", "baseline": "not given", "reading": "higher = stronger binding", "Construct (chain)": "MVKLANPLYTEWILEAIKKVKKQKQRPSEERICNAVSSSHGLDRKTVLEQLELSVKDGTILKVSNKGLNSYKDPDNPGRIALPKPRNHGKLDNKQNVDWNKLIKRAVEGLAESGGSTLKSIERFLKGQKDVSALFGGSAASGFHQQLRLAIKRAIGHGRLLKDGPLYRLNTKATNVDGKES"}
{"Strand": "ATCCCTTG", "E-score": -0.188}
{"Strand": "TACTGTCA", "E-score": -0.083}
{"Strand": "AAAGCTCT", "E-score": -0.0698}
{"Strand": "GTGGCCAA", "E-score": -0.201}
{"Strand": "GATCTGCC", "E-score": -0.0146}
{"Strand": "CCTAACTA", "E-score": -0.065}
{"Strand": "CGCGCCCC", "E-score": 0.337}
{"Strand": "AGTGCAGA", "E-score": -0.106}
{"Strand": "AATAAGGG", "E-score": -0.307}
{"Strand": "ACTGCCCG", "E-score": 0.187}
{"Strand": "GCATTGAA", "E-score": -0.00228}
{"Strand": "AACGTTTG", "E-score": 0.0508}
{"Strand": "AACTGAGA", "E-score": -0.152}
{"Strand": "AGCCGTAA", "E-score": 0.277}
{"Strand": "AGCCGAGG", "E-score": 0.0295}
{"Strand": "GACATAGC", "E-score": 0.0431}
{"data": "Study 2", "target": "DBP, bZIP domain (human)", "method": "DHFR protein complementation", "matrix": "yeast", "setting": "single substitutions, most at no-binding floor", "baseline": "wild-type JUN-FOS pair", "reading": "higher = stronger binding", "parent": "JUN, bZIP domain (human); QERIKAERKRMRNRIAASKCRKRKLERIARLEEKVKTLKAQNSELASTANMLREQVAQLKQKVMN; partner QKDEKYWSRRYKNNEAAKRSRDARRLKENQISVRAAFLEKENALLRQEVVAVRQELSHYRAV"}
{"Change": "L38P", "binding fitness [natural log]": -1.48}
{"Change": "A49D", "binding fitness [natural log]": -1.56}
{"Change": "A46P", "binding fitness [natural log]": -1.51}
{"Change": "T37L", "binding fitness [natural log]": -1.35}
{"Change": "E33N", "binding fitness [natural log]": -1.22}
{"Change": "S47H", "binding fitness [natural log]": -1.52}
{"Change": "K34G", "binding fitness [natural log]": -1.39}
{"Change": "L52K", "binding fitness [natural log]": -1.52}
{"Change": "E54D", "binding fitness [natural log]": -1.38}
{"Change": "S47E", "binding fitness [natural log]": -1.54}
{"Change": "N42G", "binding fitness [natural log]": -1.48}
{"Change": "E32D", "binding fitness [natural log]": -1.59}
{"Change": "A29M", "binding fitness [natural log]": -1.49}
{"Change": "K39H", "binding fitness [natural log]": -1.48}
{"Change": "L52V", "binding fitness [natural log]": -1.51}
{"Change": "T37Y", "binding fitness [natural log]": -1.31}
{"Change": "A57G", "binding fitness [natural log]": -1.43}
{"Change": "A40S", "binding fitness [natural log]": -1.49}
{"Change": "T37V", "binding fitness [natural log]": -1.35}
{"data": "Study 3", "target": "CCNA1, cyclin fold, Cln2 fusion (human)", "method": "yeast growth competition, sequencing", "matrix": "yeast", "setting": "weak parent motif", "baseline": "not given", "reading": "higher = stronger binding", "parent": "PLK5 docking peptide (human); IFRKVGQRLLTQC"}
{"Change": "Q7A", "normalised enrichment score": -0.0688}
{"Change": "L10A", "normalised enrichment score": -0.459}
{"Change": "Q12A", "normalised enrichment score": -0.37}
{"Change": "L9A", "normalised enrichment score": -0.0837}
{"Change": "K4A", "normalised enrichment score": -0.483}
{"Change": "T11A", "normalised enrichment score": -0.259}
{"Change": "V5A", "normalised enrichment score": -0.295}
{"data": "Study 4", "target": "ABI1, truncated, D143A, DHFR fusion (Arabidopsis thaliana)", "method": "DHFR PCA, deep sequencing", "matrix": "yeast", "setting": "methotrexate growth selection, single substitutions", "with": "(+)-ABA 710 µM", "baseline": "wild-type fitted maximum", "reading": "higher = stronger binding", "parent": "PYL1, truncated, DHFR fusion (Arabidopsis thaliana); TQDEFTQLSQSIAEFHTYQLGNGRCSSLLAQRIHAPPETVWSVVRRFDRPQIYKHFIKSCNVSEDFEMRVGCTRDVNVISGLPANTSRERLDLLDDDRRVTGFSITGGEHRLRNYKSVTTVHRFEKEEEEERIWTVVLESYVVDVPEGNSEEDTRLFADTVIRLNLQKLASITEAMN; partner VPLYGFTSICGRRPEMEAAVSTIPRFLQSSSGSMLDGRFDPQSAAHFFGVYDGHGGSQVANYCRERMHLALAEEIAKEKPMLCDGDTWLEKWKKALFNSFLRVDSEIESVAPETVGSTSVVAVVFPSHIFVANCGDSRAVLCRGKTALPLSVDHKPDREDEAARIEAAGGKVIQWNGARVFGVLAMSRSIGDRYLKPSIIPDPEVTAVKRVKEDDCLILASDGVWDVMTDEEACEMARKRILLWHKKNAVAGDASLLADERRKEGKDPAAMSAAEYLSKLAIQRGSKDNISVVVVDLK"}
{"Change": "T173Y", "relative binding score": "72.9%"}
{"Change": "I12D", "relative binding score": "57.9%"}
{"Change": "L29H", "relative binding score": "99.3%"}
{"Change": "T160D", "relative binding score": "-7.8%"}
{"Change": "S104Q", "relative binding score": "81.2%"}
{"Change": "L138M", "relative binding score": "97.5%"}
{"Change": "P146G", "relative binding score": "86.7%"}
{"Change": "T17E", "relative binding score": "102%"}
{"Change": "L156F", "relative binding score": "96.9%"}
{"Change": "A30K", "relative binding score": "105%"}
{"Change": "S63F", "relative binding score": "91.7%"}
{"Change": "K168Y", "relative binding score": "86.8%"}
{"Change": "D144H", "relative binding score": "78.3%"}
{"Change": "N61S", "relative binding score": "103%"}
{"data": "Study 5", "target": "Interferon regulatory factor 5, full length, phosphomimetic (IRF5, Homo sapiens, UniProt Q13568-2, residues 1-514, K96S/S451D/S453D/S456D/S462D)", "method": "protein-binding microarray", "form": "double-stranded DNA, one strand shown", "matrix": "in vitro", "tested at": "250 nM", "setting": "60-bp whole probe", "with": "salmon DNA 0.4 mg/ml", "baseline": "random background probes", "reading": "higher = stronger binding", "all sequences stand within": "GCCTAGCAC … GTCTTGATTCGCTTGACGCTGCTG"}
{"Strand": "TTAGGTATCTGTTTCGGTTAGTGCTAG", "log fluorescence [z-score]": 9.38}
{"Strand": "TTAGATATCGGGTTTCGATTAGTGCTA", "log fluorescence [z-score]": 7.55}
{"Strand": "TTAGATCTCAGTATCGATCAGTGCTAG", "log fluorescence [z-score]": 5.67}
{"Strand": "GACCGACTGGGACTGGGGACGTGCTAG", "log fluorescence [z-score]": -0.498}
{"Strand": "GTGTGTGTCTGATTATTTACGTGCTAG", "log fluorescence [z-score]": 0.127}
{"Strand": "TTAGGTTTGGGTTCCGGTTAGTGCTAG", "log fluorescence [z-score]": 0.629}
{"Strand": "TTAGGTTTCCTTCTCCTTTGGTGCTAG", "log fluorescence [z-score]": 1.22}
{"Strand": "TTAGGTTTCGTTCTCCTTTAGTGCTAG", "log fluorescence [z-score]": 7.46}
{"Strand": "GACGGTATCGACTTTGGGGACGTGCTA", "log fluorescence [z-score]": 1.59}
{"Strand": "TGAGATTTCGGGACTGGATTAGTGCTA", "log fluorescence [z-score]": 1.52}
{"Strand": "GATGGACTGCTTCTCCTGACGTGCTAG", "log fluorescence [z-score]": -0.0365}
{"Strand": "TCAAACTTTTTTCTGATACTGTGCTAG", "log fluorescence [z-score]": 1.13}
{"Strand": "TGGATGGTCCTGGTTTCATGGGTGCTA", "log fluorescence [z-score]": 0.236}
{"Strand": "GACGGTCCCGGTATCGGGACGTGCTAG", "log fluorescence [z-score]": 0.523}
{"Strand": "TCAGCTACCTCTCTTAGACTGTGCTAG", "log fluorescence [z-score]": -0.177}
{"Strand": "GACGATATCGGGATTGGAGACGTGCTA", "log fluorescence [z-score]": 1.1}
{"Strand": "GACGGACTGAGGTATCGGGACGTGCTA", "log fluorescence [z-score]": -0.063}
{"Strand": "GACGGAATGCTTATCCTGACGTGCTAG", "log fluorescence [z-score]": -0.0618}
{"Strand": "TCAACTTTCCAAAGCGTACTGTGCTAG", "log fluorescence [z-score]": 0.331}
{"data": "Further values, each from its own experiment"}
{"Substance": "PhoQ, residues 284 288 289 292 302 303 GASLAW", "target": "PhoP, residues 12 14 15 18 19 NNFVT (Escherichia coli, UniProt P23836)", "test": "Sort-seq, measured: YFP reporter", "test system": "E. coli", "setting": "PhoQ-PhoP variant library, with: 10 µM Mg2+", "how to read": "baseline: high Mg2+ state, higher = stronger signaling", "quantity": "fold induction", "result": 3.84}
{"note": "A few entries again (study 1):"}
{"Strand": "GTGGCCAA", "E-score": -0.201}
{"Strand": "GATCTGCC", "E-score": -0.0146}
{"Strand": "CCTAACTA", "E-score": -0.065}
{"Strand": "CGCGCCCC", "E-score": 0.337}
{"Strand": "AGTGCAGA", "E-score": -0.106}
{"Strand": "AATAAGGG", "E-score": -0.307}
{"Strand": "ACTGCCCG", "E-score": 0.187}
{"Strand": "GCATTGAA", "E-score": -0.00228}
{"Strand": "AACGTTTG", "E-score": 0.0508}
{"Strand": "AACTGAGA", "E-score": -0.152}
{"Strand": "AGCCGTAA", "E-score": 0.277}
